Measured values of several laboratories.
Each numbered part is a random draw from the data of one study; scales do not carry over between parts. Changes are numbered by the printed parent chain.

Set 1
Target: Transcriptional repressor CTCF (CTCF, Homo sapiens, UniProt P49711, residues 1-727, full length assumed)
UniProt P49711, sequence (whole entry, looked up): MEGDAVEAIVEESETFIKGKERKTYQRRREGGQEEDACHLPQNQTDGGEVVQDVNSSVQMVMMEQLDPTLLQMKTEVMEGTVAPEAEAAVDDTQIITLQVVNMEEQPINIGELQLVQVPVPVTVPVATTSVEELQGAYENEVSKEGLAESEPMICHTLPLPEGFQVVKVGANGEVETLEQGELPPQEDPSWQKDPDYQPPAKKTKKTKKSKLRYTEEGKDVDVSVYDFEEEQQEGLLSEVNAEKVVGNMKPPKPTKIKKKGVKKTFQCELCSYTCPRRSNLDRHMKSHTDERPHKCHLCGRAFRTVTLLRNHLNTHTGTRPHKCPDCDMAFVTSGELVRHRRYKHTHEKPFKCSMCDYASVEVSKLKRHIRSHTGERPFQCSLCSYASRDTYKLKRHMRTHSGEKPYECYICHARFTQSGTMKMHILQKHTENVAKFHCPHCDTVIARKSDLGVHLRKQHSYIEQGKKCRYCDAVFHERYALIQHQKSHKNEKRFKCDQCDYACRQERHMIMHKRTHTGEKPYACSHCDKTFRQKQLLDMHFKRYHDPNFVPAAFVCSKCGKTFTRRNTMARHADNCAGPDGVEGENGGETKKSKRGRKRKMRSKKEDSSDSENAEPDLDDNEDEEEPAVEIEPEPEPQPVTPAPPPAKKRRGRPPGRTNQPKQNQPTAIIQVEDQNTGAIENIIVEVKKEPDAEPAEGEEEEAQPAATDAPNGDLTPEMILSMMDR
Technique: protein-binding microarray
Form: double-stranded DNA, one strand shown
Sample: in vitro
Concentration: not given
Notes: k-mer, scored over probes, only values ≥0.25
Direction: higher = stronger binding
Oligonucleotide	E-score
CATACATG	0.356
GGTAACAA	0.275
ATTGTTGA	0.254
ACAATTAT	0.28
GCGCGCAA	0.39
AGGGGGCG	0.482
GATTGCGC	0.367
TACAAATA	0.357
GGCGCAAC	0.286
AAAAATAT	0.314
GTTGCGCA	0.312
AAGATAAA	0.29
GAATAACA	0.264
ATTTTACA	0.279
GCGCGTAC	0.279
AATATTAC	0.322
GAGTGCGC	0.271
CCCCCTAC	0.285
TGTTAACA	0.269

Set 2
Target: TAR DNA-binding protein 43, full length, His tag (TARDBP, Homo sapiens, UniProt Q13148, residues 1-414)
Technique: RNA Bind-n-Seq
Form: RNA
Sample: in vitro
Concentration: 20 nM
Notes: 6-mer, flanks averaged, single round
With: 150 mM KCl
Baseline: input library
Direction: higher = stronger binding
Oligonucleotide	6-mer enrichment (R)
CCCUCC	0.622
UGCUUA	0.617
CUGCGC	0.838
UCGUCA	0.621
CACGGU	0.837
UAACGC	0.633
GGUCGC	1.44
GCGAAU	0.978
CGAUCU	0.568
CGAGAG	1.5
AGAGAU	0.805

Set 3
Target: CCND3, cyclin fold, Cln2 fusion (human)
Technique: yeast growth competition, sequencing
Sample: yeast
Notes: weak parent motif
Baseline: not given
Direction: higher = stronger binding
Starting sequence: PKN2 docking peptide (human); VSAVQKLDFSDTM
Change	normalised enrichment score
V4K	0.02
T12A	0.149
K6V	0.118
D11W	0.131
Q5A L7A	0.0502
L7T	0.0581
A3I	0.0762
V1S	0.166
F9L	0.0122
L7H	0.114
D11A	0.157
L7F	0.105
S10R	0.129
F9N	0.149
S10T	0.107
V1F	0.142

Set 4
Target: Interferon regulatory factor 7, full length, phosphomimetic (IRF7, Homo sapiens, UniProt Q92985, residues 1-503, S101K/S471D/S472D/S475D/S476D/S477D/S483D/S484D/S487D)
UniProt Q92985, sequence (whole entry, unmodified, looked up): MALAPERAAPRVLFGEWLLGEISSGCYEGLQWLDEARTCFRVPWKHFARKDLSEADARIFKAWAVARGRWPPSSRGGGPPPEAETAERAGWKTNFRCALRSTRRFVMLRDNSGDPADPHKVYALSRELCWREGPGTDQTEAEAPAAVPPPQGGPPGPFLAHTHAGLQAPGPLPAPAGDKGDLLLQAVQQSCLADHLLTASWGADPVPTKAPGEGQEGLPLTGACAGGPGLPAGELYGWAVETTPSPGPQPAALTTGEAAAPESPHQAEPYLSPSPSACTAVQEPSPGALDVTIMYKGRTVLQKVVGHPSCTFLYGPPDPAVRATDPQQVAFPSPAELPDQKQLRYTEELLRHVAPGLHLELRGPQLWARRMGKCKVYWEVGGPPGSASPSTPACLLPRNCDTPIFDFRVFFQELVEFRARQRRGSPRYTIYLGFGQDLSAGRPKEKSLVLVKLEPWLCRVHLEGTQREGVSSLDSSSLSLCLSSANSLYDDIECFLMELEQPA
Technique: protein-binding microarray
Form: double-stranded DNA, one strand shown
Sample: in vitro
Concentration: 250 nM
Notes: 60-bp whole probe
With: salmon DNA 0.4 mg/ml
Baseline: random background probes
Direction: higher = stronger binding
All sequences stand within: GCCTAGCAC … GTCTTGATTCGCTTGACGCTGCTG
Oligonucleotide	log fluorescence [z-score]
TCAATTTTGTTCATCATACTGTGCTAG	0.346
GACGGACTGCTTCTCCCGACGTGCTAG	-0.1
TTAGATTTCAGCCTCGATTAGTGCTAG	0.241
TCATATTTTAATCACATACTGTGCTAG	0.957
TTAGGTCTCCTTAGCCTTTAGTGCTAG	-0.259
TTAGGACTGGGGACTCGGTTAGTGCTA	0.135
GACCGTTTCGACTATCGGGACGTGCTA	3.7
ATAGGTCTCGGTTTCGGTTAGTGCTAG	11.2
TCAATTATAACACTCTTACTGTGCTAG	0.461
AGCTCCCTTTCTCTCTGTGAGTGCTAG	0.659
TATAATTTTGTCATCTATAAGTGCTAG	0.365
GACGGCTTCCTTTCCCTGACGTGCTAG	0.102
GGCGGTATCGGTTTCGGGACGTGCTAG	6.78
GACGATATCCTTTTCCTGACGTGCTAG	0.805
GTCGATTTCAGTCTCGAGACGTGCTAG	1.73
CTGACTTTGGAGATGACTCAGTGCTAG	-0.0995
TTAGGACTGGGACTGGGTCAGTGCTAG	-0.526
TCAGCCCTCGGTTTACAACTGTGCTAG	0.113
TTAGGTCTCCGTATCCTTTAGTGCTAG	0.604
TTTTATTTATAAATTATCTTGTGCTAG	0.392
TTAGGTATCGACACTGCGTTAGTGCTA	-0.233
GGTCTGGCTGGCTCCTGCACGTGCTAG	-1.16

Set 5
Target: Ras GTPase-activating protein-binding protein 1, RRM domain (G3BP1, Homo sapiens, UniProt Q13283)
UniProt Q13283, sequence (whole entry, looked up): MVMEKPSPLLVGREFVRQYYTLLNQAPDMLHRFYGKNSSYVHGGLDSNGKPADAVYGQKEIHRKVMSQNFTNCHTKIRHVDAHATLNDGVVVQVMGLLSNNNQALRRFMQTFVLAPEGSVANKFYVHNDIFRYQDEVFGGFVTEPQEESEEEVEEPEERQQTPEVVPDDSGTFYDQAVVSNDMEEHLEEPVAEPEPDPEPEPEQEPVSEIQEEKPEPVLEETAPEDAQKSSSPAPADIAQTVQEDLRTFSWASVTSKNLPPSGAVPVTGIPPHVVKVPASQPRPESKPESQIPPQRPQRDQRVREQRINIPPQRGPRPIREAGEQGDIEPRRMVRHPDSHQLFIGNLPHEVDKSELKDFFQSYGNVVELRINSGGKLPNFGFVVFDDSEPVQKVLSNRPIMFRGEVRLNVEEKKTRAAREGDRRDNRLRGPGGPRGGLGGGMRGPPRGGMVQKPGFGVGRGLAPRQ
Technique: RNA Bind-n-Seq
Form: RNA
Sample: in vitro
Concentration: 1 µM
Notes: whole 134-nt RNA, ends assumed
With: 150 mM KCl
Baseline: input library
Direction: higher = stronger binding
All sequences stand within: GGGAGUUCUACAGUCCGACGAUC … UGGAAUUCUCGGGUGUCAAGG
Oligonucleotide	log2 enrichment
AAUUCUCAUUUCUCGACAUAAAGCCUUGUCUAAAGUGAGAUGUUUUCCAGGUCAUACAUAGGUUUCUCCCUGGGGUAAUUGGAAGUUCUU	-0.323
CACAGACAACACGCACCCACACAGACACAGAGGGAAGGGGUUGGGAUGGGGACAGGGUGCACAGCAGGGCGGGGUAGGACCCCAAACCCU	-0.29
AAGUCCUGUGCUACACAUCGUAUGUACCGAAUCGGGGUUUGGGGUGGGGUUUGGGGAAAGUAUUAUGUUACGCCGUUCGGAUCUGCACUU	0.542
UAACUUUAGAGGAGGAUCUGAUGGAUAUGGCAGUGGACGUGGAUUUGGGGAUGGCUAUAAUGGGUAUGGAGGAGGACCUGGAGGUGGCGA	-0.743
CACAGACAACACGCACCCACACAGACACAGAGGGAAGGGGUUGGGAUGGGGACAGGGUGCACAGCAGGGCGGGGUAGGACCCCACCCCCU	-0.342
UCCUCAAGUCCUGUGCUACACAUCGUAUGUACCGAAUCGGUUUGGUGGAGGAAAGUAUUAUGUUACGCCGUUCGGAUCUGCACUUCCAGC	-0.248
UCCUGUGCUACACAUCGUAUGUACCGAAUCGGGGAGGGGAAAAAAAGGGGUUUUUGGGGAAAGUAUUAUGUUACGCCGUUCGGAUCUGCA	0.773
CAAGUCCUGUGCUACACAUCGUAUGUACCGAAUCGGGAAAGGGUGGGUUUUUGGGAAAGUAUUAUGUUACGCCGUUCGGAUCUGCACUUC	0.789
AGUCCUGUGCUACACAUCGUAUGUACCGAAUCAAACCCCCAAAUUUAAACCCCCAAAAAAGUAUUAUGUUACGCCGUUCGGAUCUGCACU	-0.139
ACCAUGCAGGUGGGCAUCUUUGGGAAGUGGGGCAAGGGGGGGAUAGGGAGGGGGGUAACACUUUGGGAACAAGUGGUCCCAGGUCGUUUC	0.8
CAAGUCCUGUGCUACACAUCGUAUGUACCGAAUCGGGUUUGGGUUUGGGGUUUGGGAAAGUAUUAUGUUACGCCGUUCGGAUCUGCACUU	0.713
CACAGACAACACGCUCCCACACAGACACAGAGGGAAGGGGUUGGGAUGGGGACAGGGUGCACAGCAGGGCGGGGUAGGACCCCAGCCCCU	-0.0602
CUGUGCUACACAUCGUAUGUACCGAAUCGGGUUUUUUUGGUUUUUUUGGGGUUUUUUUGGGAAAGUAUUAUGUUACGCCGUUCGGAUCUG	-0.144
GCAGGAAGUAAAAACAAAUGGAAAUGCUUCGGAUAGUGGCAGGGGUGGGGGUUGCGAAGGAAAGGGUGGGAUGGGAGUGGGUAAAGAGUU	1.61

Set 6
Target: Sal-like protein 4, full length isoform A (SALL4, Homo sapiens, UniProt Q9UJQ4, residues 1-1053)
UniProt Q9UJQ4, sequence (whole entry, looked up): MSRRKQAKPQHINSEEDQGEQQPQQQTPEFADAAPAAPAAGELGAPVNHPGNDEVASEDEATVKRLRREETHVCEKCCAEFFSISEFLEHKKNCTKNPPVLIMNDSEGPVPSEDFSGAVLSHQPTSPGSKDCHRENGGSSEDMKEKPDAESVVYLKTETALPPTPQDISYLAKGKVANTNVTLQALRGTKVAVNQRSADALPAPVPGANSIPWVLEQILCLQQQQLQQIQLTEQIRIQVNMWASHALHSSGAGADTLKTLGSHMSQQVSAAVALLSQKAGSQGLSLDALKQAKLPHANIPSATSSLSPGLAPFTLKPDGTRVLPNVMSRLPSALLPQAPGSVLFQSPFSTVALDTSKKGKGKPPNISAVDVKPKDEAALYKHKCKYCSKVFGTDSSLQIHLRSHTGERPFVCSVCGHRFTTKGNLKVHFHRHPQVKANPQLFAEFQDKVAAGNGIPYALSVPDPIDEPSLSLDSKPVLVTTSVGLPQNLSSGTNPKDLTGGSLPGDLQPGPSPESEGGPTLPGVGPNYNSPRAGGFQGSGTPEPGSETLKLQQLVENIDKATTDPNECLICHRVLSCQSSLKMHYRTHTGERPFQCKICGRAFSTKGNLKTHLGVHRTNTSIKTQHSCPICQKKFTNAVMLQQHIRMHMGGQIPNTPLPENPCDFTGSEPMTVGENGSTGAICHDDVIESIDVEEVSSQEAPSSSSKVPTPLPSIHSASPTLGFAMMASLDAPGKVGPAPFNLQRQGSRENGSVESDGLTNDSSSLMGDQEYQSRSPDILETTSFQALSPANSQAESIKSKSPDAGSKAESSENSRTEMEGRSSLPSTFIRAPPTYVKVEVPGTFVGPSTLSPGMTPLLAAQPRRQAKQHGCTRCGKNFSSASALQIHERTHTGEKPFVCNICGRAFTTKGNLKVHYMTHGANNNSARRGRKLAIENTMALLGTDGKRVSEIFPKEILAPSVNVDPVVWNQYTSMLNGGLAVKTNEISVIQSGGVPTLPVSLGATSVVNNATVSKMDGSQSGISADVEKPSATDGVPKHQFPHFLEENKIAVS
Technique: universal PBM
Form: double-stranded DNA, one strand shown
Sample: in vitro
Concentration: 600 nM
Notes: 8-mer, flanks averaged, mean of replicates
Direction: higher = stronger binding
Oligonucleotide	E-score
CCTAGGAG	-0.124
GACCTCAA	-0.0254
CATGCTGG	-0.204
AGGAGATA	0.0436
CCGTAGGC	-0.142
ATGGCGGC	-0.226
CACCGCTA	-0.141
CTAAGGAG	-0.238
AGCTATGC	0.0179
GCACTGCC	-0.0915
CTCCTCCC	-0.344
ATAACTAG	0.313
AACTCACC	-0.0891
ACCTGGAT	-0.255
GTTCGAGA	0.0312
CAGTACTG	-0.242
CACTTACG	0.012
CAAAACGG	0.0751
GGAAACAC	-0.138
AGGAGCGG	-0.371
GCAGCATA	0.055
ACAAATAA	0.315
CAGTGTAA	0.129
TGCACACA	0.0611
AACAGCAG	0.0647

Mixed results
Substance	target	test	test system	conditions	scale	endpoint	value
PhoQ, residues 284 288 289 292 302 303 SLANIV	PhoP, residues 12 14 15 18 19 GQALL (Escherichia coli, UniProt P23836)	Sort-seq, refers to: YFP reporter	E. coli	PhoQ-PhoP variant library, with: 10 µM Mg2+	baseline: high Mg2+ state, higher = stronger signaling	fold induction	13.8

Repeated from above (set 6):
Oligonucleotide	E-score
GACCTCAA	-0.0254
CATGCTGG	-0.204
AGGAGATA	0.0436
CCGTAGGC	-0.142
ATGGCGGC	-0.226
CACCGCTA	-0.141
CTAAGGAG	-0.238
AGCTATGC	0.0179
GCACTGCC	-0.0915
CTCCTCCC	-0.344
ATAACTAG	0.313
AACTCACC	-0.0891
ACCTGGAT	-0.255
GTTCGAGA	0.0312
CAGTACTG	-0.242
CACTTACG	0.012
CAAAACGG	0.0751
